{"data": "Results gathered from unrelated publications", "note": "Each numbered part is a random draw from the data of one study; scales do not carry over between parts. Values joined by “and” are separate records of one study, mostly repeats; a detail may differ."}
{"data": "Set 1", "Compound": "C[C@@H]1CN(c2ccc(-c3cc(C(=O)NCCOCCOCCOCCOCCNC(=O)/C=C/c4[nH]cc(C(=O)N[C@@H](CC(N)=O)c5ccc(F)c(Cl)c5)c4-c4ccc(Cl)cc4F)ccc3F)cc2NC(=O)c2c[nH]c(=O)cc2C(F)(F)F)C[C@H](C)N1C", "observed": "thermal unfolding", "method": "differential scanning fluorimetry", "concentration": "5.5 µM", "reading": "higher = more unfolded", "DCAF1": "DDB1- and CUL4-associated factor 1 (DCAF1, Homo sapiens, UniProt Q9Y4B6)", "UniProt Q9Y4B6, sequence (whole entry, looked up)": "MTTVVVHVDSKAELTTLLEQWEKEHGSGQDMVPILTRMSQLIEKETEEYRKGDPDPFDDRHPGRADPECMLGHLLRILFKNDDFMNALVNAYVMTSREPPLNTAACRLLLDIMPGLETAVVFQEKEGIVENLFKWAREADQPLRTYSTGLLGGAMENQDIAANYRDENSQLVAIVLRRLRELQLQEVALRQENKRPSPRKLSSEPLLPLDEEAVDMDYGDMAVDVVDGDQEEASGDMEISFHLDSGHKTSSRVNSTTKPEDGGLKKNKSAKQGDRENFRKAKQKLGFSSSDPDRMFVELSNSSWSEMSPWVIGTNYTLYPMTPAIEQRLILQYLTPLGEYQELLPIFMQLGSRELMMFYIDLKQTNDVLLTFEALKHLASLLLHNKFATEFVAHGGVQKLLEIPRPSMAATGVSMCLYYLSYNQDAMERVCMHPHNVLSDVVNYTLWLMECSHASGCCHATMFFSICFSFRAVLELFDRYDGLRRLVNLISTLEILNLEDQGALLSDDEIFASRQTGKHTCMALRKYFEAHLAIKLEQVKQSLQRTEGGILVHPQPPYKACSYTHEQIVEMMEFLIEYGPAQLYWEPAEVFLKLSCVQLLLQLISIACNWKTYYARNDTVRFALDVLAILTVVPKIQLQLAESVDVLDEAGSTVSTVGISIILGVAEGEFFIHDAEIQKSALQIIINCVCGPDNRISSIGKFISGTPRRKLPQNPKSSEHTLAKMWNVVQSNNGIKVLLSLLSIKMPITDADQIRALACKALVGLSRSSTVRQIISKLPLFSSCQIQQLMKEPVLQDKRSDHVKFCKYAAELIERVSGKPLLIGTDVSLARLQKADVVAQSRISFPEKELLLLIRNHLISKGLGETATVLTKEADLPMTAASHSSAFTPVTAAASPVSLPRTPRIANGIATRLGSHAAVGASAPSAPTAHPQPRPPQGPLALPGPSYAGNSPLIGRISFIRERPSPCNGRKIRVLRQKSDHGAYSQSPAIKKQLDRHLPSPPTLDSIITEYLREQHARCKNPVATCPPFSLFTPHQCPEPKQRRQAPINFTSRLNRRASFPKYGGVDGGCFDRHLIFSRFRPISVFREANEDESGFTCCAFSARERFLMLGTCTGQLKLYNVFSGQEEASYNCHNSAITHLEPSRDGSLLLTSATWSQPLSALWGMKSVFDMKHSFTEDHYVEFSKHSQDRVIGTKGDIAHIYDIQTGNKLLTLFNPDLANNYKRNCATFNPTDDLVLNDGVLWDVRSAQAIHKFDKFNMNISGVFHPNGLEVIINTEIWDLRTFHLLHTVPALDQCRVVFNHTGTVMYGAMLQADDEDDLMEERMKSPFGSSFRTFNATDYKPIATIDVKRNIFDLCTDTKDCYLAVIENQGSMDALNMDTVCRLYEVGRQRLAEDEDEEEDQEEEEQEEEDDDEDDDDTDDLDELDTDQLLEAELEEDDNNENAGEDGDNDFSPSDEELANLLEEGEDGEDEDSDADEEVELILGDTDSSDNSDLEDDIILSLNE"}
{"target": "DCAF1", "setting": "81.61 °C", "SYPRO Orange fluorescence [a.u.]": 43400}
{"target": "WD repeat-containing protein 5 (WDR5, Homo sapiens, UniProt P61964)", "setting": "71.21 °C", "SYPRO Orange fluorescence [a.u.]": 18000}
{"target": "DCAF1", "setting": "87.01 °C", "SYPRO Orange fluorescence [a.u.]": 37800}
{"target": "DCAF1", "setting": "32 °C", "SYPRO Orange fluorescence [a.u.]": 9730}
{"target": "DCAF1", "setting": "78.61 °C", "SYPRO Orange fluorescence [a.u.]": 46600}
{"target": "DCAF1", "setting": "61.41 °C", "SYPRO Orange fluorescence [a.u.]": 47400}
{"target": "DCAF1", "setting": "51.6 °C", "SYPRO Orange fluorescence [a.u.]": 16500}
{"target": "DCAF1", "setting": "66.61 °C", "SYPRO Orange fluorescence [a.u.]": 59200}
{"data": "Set 2", "target": "Sodium-dependent neutral amino acid transporter B(0)AT1 (SLC6A19, Homo sapiens, UniProt Q695T7)", "action": "inhibitor", "method": "FLIPR membrane potential", "cells": "CHO-BC cells", "concentration": "30 µM", "UniProt Q695T7, sequence (whole entry, looked up)": "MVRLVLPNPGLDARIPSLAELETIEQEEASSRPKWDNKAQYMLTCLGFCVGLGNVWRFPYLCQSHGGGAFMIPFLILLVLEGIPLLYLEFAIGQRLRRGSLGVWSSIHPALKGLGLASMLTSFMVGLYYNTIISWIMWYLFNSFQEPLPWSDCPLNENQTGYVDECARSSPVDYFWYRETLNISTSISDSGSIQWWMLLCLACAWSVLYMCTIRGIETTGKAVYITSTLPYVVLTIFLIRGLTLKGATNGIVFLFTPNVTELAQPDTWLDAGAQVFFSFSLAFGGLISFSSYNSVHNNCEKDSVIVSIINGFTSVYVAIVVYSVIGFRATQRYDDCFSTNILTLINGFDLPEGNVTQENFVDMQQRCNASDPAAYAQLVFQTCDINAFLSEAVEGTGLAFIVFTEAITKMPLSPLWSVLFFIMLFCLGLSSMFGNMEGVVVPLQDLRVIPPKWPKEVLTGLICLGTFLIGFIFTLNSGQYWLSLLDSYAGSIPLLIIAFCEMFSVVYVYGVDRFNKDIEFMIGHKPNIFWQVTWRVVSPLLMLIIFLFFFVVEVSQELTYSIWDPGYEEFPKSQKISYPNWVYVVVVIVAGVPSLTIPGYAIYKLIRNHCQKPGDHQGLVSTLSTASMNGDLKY"}
{"SMILES": "Cc1cc(OCC(=O)NC(C)C)cc(C)c1Br", "normalised transport activity": 0.233}
{"SMILES": "Cc1cc(OCC(=O)NC(C)C)cc(C)c1I", "normalised transport activity": 0.169}
{"SMILES": "CCNC(=O)COc1cc(C)c(Cl)c(C)c1", "normalised transport activity": 0.488}
{"SMILES": "Cc1cc(NCC(=O)NC(C)C)cc(C)c1Cl", "normalised transport activity": 0.102}
{"data": "Set 3", "cell line": "HCC1569", "method": "in-cell western", "measured": "CDK1 phospho-Thr14", "time": "24 h"}
{"SMILES": "Cc1ccc(O)c(C)c1-c1cnc2[nH]c(-c3cnc(N4CCC(CN5CCC(c6ccc(NC7CCC(=O)NC7=O)cc6F)CC5)CC4)nc3)cc2c1C#N (stereo not drawn)", "IC50": "0.056 µM"}
{"SMILES": "Cc1ccc(O)c(C)c1-c1cnc2[nH]c(-c3cnc(N4CCC5(CC4)CC(CN4CCN(c6ccc(NC7CCC(=O)NC7=O)cc6F)CC4)C5)nc3)cc2c1C#N (stereo not drawn)", "IC50": "0.074 µM"}
{"SMILES": "Cc1ccc(O)c(C)c1-c1cnc2[nH]c(-c3cnc(N)nc3)cc2c1C#N", "IC50": "0.044 µM"}
{"SMILES": "Cc1ccc(O)c(C)c1-c1cnc2[nH]c(-c3cnc(N4CCC(CN5CCN(c6ccc7c(c6F)CN(C6CCC(=O)NC6=O)C7=O)CC5)CC4)nc3)cc2c1C#N (stereo not drawn)", "IC50": "0.087 µM"}
{"SMILES": "Cc1ccc(O)c(C)c1-c1cnc2[nH]c(-c3cnc(N4CCC(CN5CCN(c6c(F)cc(NC7CCC(=O)NC7=O)cc6F)CC5)CC4)nc3)cc2c1C#N (racemic)", "IC50": "0.049 µM"}
{"SMILES": "Cc1ncc(-c2cc3c(C#N)c(-c4c(C)ccc(O)c4C)cnc3[nH]2)cn1", "IC50": "0.096 µM"}
{"SMILES": "Cc1ccc(O)c(C)c1-c1cnc2[nH]c(-c3cnc(N4CCC(CN5CCN(c6ccc(NC7CCC(=O)NC7=O)cc6F)CC5)CC4)nc3)cc2c1C#N (stereo not drawn)", "IC50": "0.053 µM"}
{"SMILES": "Cc1ccc(O)c(C)c1-c1cnc2[nH]c(-c3cnc(N4CCC(CN5CCN(c6ccc7c(c6)C(=O)N(C6CCC(=O)NC6=O)C7=O)CC5)CC4)nc3)cc2c1C#N (stereo not drawn)", "IC50": "0.029 µM"}
{"data": "Other studies, line by line", "target": "Myeloperoxidase (MPO, Homo sapiens, UniProt P05164)", "UniProt P05164, sequence (whole entry, looked up)": "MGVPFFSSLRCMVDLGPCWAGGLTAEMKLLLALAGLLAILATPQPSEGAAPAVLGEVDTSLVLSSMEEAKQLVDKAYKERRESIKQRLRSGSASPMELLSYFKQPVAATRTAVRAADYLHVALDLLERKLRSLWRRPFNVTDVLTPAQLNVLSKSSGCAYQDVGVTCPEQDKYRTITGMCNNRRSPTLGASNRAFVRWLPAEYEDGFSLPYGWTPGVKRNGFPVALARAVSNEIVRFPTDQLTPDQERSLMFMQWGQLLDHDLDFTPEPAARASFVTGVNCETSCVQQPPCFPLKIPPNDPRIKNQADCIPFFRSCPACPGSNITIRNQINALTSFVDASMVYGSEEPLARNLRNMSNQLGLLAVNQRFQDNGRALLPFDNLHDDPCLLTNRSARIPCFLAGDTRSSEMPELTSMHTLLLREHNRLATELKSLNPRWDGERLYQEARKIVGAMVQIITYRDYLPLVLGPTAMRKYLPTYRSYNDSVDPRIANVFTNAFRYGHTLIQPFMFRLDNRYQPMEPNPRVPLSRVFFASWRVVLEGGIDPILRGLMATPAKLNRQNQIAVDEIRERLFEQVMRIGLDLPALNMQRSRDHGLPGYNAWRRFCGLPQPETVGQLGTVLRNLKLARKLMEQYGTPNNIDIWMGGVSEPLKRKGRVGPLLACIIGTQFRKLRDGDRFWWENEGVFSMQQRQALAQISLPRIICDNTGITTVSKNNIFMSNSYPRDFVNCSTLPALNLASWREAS"}
{"Compound": "CC(C)(C)NC(=O)c1ccc(OC/C(=C/F)CN)cc1", "assay": "enzyme activity, inhibitor, fluorescence", "setting": "3.333 µM", "inhibition": "-11.7% and -10.4% and -15.8%"}
{"Compound": "NC/C(=C\\F)COc1ccc(C(F)(F)F)c(Cn2c(=S)[nH]c(=O)c3[nH]cnc32)c1", "assay": "enzyme activity", "setting": "0.1235 µM", "inhibition": "76.2% and 68.6%"}
{"Compound": "NC/C(=C\\F)COc1ccc(-c2cc(=O)[nH]c(=S)n2CC(N)=O)c(Cl)c1", "assay": "enzyme activity, inhibitor, fluorescence", "setting": "300 pM", "inhibition": "-10.4% and -5.37%"}
{"Compound": "NC/C(=C/F)COc1cccc(Cn2c(=S)[nH]c(=O)c3[nH]cnc32)c1", "assay": "H2O2 consumption, inhibitor, Amplex Red", "setting": "1.694e-05 µM", "inhibition": "4.24%"}
{"note": "Some of these lines once more (set 1):"}
{"target": "DCAF1", "setting": "81.61 °C", "SYPRO Orange fluorescence [a.u.]": 43400}
{"target": "WD repeat-containing protein 5 (WDR5, Homo sapiens, UniProt P61964)", "setting": "71.21 °C", "SYPRO Orange fluorescence [a.u.]": 18000}
{"target": "DCAF1", "setting": "87.01 °C", "SYPRO Orange fluorescence [a.u.]": 37800}
{"target": "DCAF1", "setting": "32 °C", "SYPRO Orange fluorescence [a.u.]": 9730}
